Results pooled from the literature.
Each line is one published result; not all experiments were run side by side. ± gives the spread as reported.
ppa: Inorganic pyrophosphatase (ppa, Escherichia coli, UniProt P0A7A9)
Chain of UniProt P0A7A9 (whole entry, looked up): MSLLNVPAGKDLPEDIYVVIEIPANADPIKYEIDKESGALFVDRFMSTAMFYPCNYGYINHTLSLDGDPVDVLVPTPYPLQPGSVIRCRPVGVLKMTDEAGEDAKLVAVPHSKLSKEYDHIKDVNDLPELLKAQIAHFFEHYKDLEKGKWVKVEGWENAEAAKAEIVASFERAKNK
NNMT: Nicotinamide N-methyltransferase (NNMT, Homo sapiens, UniProt P40261)
Chain of UniProt P40261 (whole entry, looked up): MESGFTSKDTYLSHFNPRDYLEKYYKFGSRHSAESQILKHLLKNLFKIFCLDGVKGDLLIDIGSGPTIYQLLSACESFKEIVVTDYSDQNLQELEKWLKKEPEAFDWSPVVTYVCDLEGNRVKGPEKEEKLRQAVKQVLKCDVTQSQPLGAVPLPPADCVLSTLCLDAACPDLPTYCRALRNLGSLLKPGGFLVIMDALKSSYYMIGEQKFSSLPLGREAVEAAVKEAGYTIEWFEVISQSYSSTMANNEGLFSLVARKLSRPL
MAOB: Amine oxidase [flavin-containing] B (MAOB, Homo sapiens, UniProt P27338)
Chain of UniProt P27338 (whole entry, looked up): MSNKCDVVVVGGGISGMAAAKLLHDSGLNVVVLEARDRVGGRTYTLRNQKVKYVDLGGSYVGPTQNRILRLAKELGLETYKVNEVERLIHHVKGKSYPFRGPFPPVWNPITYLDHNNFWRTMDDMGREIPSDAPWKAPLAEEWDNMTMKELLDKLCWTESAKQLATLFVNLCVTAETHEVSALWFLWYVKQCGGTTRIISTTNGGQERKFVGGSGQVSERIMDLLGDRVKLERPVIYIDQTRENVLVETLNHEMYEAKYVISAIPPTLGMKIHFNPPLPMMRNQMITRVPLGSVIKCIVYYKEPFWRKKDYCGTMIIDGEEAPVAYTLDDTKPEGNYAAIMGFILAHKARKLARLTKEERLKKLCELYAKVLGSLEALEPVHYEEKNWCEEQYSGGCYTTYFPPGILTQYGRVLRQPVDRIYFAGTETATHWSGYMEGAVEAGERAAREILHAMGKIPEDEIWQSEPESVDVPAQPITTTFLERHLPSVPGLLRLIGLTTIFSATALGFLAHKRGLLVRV
Gria1: Glutamate receptor 1 (Gria1, Rattus norvegicus, UniProt P19490)
Chain of UniProt P19490 (whole entry, looked up): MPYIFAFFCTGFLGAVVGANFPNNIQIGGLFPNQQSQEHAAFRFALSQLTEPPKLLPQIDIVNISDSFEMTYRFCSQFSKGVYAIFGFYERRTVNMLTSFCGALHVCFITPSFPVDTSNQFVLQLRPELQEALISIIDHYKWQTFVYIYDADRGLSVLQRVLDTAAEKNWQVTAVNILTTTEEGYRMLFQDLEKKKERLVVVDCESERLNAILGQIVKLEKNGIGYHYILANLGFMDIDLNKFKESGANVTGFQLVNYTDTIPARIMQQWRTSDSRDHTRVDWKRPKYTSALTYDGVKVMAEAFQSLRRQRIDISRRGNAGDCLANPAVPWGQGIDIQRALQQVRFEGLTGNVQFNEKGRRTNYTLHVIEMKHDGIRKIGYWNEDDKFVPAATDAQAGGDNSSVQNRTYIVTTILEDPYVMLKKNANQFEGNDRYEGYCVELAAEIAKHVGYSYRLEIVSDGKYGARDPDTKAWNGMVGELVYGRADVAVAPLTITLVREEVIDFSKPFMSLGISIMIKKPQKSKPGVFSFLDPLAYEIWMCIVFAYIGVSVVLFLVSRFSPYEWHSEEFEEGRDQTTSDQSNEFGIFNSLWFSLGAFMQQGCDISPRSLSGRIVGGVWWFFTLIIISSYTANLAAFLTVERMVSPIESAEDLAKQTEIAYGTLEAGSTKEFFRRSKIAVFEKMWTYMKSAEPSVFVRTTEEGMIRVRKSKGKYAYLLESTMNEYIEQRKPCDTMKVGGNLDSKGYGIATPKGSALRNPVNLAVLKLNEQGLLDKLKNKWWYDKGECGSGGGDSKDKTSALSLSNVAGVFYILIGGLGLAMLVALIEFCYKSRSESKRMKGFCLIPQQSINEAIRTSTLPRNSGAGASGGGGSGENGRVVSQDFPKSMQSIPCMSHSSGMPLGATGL
NTSR1: Neurotensin receptor type 1 (NTSR1, Homo sapiens, UniProt P30989)
Chain of UniProt P30989 (whole entry, looked up): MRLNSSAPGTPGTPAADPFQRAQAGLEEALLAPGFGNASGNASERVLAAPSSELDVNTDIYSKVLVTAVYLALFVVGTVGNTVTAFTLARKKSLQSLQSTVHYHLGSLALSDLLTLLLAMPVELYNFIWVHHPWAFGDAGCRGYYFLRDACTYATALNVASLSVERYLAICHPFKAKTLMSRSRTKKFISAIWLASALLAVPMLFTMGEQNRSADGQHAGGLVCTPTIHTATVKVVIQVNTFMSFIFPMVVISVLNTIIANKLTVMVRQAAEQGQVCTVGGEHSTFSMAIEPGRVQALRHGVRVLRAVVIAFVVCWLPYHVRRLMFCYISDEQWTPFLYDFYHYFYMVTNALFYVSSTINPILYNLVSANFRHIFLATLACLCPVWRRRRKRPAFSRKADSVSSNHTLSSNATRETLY
DNA dC->dU-editing enzyme APOBEC-3B C-terminal domain: DNA dC->dU-editing enzyme APOBEC-3B, C-terminal domain (Homo sapiens, UniProt Q9UH17)
Chain of UniProt Q9UH17 (whole entry, looked up): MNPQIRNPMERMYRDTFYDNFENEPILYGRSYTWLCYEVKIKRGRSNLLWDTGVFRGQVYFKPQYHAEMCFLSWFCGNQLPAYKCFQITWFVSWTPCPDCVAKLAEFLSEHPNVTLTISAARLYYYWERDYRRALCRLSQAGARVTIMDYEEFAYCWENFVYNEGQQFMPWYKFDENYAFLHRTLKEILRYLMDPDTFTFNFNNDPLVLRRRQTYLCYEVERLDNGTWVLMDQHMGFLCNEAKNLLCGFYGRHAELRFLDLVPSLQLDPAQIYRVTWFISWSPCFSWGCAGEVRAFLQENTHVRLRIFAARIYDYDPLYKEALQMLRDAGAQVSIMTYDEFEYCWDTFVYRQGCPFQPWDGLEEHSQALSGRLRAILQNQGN
ADRB2: Beta-2 adrenergic receptor (ADRB2, Homo sapiens, UniProt P07550)
Chain of UniProt P07550 (whole entry, unmodified, looked up): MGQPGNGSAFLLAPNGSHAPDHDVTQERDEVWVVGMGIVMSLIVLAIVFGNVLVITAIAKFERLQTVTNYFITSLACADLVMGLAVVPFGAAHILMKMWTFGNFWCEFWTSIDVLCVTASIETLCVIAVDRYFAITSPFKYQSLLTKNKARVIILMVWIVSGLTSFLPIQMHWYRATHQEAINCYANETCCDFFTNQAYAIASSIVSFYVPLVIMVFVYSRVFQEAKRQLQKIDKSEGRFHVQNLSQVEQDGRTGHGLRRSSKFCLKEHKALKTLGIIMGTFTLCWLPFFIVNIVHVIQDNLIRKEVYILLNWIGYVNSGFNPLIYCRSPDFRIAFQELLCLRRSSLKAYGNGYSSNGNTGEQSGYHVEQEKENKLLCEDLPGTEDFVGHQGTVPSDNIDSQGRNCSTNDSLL
PIK3CD: Phosphatidylinositol 4,5-bisphosphate 3-kinase catalytic subunit delta isoform (PIK3CD, Homo sapiens, UniProt O00329)
Chain of UniProt O00329 (whole entry, looked up): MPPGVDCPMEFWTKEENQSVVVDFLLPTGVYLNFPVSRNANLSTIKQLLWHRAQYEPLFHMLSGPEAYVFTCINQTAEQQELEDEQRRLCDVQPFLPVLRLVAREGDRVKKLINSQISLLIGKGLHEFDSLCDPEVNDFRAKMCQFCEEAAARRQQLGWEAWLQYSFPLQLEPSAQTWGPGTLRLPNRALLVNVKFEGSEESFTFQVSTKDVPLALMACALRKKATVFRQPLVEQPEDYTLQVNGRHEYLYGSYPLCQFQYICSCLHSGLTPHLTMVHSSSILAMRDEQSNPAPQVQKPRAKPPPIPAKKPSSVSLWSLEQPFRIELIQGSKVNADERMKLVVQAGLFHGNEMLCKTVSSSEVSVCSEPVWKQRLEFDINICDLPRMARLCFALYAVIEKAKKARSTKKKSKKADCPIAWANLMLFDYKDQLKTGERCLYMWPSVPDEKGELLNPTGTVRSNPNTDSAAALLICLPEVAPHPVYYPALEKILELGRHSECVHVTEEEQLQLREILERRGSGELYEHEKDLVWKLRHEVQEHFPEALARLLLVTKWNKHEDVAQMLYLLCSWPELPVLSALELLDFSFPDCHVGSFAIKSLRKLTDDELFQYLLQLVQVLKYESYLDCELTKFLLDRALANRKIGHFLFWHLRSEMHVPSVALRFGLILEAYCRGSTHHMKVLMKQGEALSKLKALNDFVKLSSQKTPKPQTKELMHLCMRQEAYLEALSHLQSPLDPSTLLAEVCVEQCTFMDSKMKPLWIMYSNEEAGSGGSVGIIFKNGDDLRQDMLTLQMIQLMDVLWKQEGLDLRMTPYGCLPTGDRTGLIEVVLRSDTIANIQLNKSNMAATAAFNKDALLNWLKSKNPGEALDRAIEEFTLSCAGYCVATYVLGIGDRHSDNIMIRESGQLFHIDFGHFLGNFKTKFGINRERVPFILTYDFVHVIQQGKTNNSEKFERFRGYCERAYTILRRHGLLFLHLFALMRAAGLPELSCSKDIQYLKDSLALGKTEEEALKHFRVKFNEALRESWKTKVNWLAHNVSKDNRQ
glpG: Rhomboid protease GlpG (glpG, Escherichia coli, UniProt P09391)
Chain of UniProt P09391 (whole entry, looked up): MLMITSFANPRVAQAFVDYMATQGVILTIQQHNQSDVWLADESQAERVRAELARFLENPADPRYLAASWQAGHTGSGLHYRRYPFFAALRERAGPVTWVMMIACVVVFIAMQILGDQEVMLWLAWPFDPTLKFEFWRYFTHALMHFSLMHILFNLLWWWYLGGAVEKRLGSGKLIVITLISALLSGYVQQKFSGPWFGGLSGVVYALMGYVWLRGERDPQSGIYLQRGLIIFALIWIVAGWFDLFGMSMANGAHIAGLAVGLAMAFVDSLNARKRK
SLC7A5: Large neutral amino acids transporter small subunit 1 (SLC7A5, Homo sapiens, UniProt Q01650)
Chain of UniProt Q01650 (whole entry, looked up): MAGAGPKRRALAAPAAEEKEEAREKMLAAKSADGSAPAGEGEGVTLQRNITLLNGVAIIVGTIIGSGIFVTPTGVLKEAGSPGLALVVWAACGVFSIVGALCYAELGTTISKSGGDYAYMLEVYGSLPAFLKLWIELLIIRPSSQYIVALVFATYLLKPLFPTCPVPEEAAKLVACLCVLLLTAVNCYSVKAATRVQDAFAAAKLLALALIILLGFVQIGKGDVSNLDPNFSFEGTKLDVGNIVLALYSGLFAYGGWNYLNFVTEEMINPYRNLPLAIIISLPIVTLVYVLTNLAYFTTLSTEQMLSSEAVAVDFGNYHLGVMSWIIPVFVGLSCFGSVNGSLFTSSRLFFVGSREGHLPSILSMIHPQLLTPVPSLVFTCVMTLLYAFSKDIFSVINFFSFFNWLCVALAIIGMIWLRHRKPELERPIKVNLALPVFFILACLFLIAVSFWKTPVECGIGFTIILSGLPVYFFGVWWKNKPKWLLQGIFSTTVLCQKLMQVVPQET
TDP1: Tyrosyl-DNA phosphodiesterase 1 (TDP1, Homo sapiens, UniProt Q9NUW8)
Uncharacterized protein: Uncharacterized protein (Trypanosoma brucei brucei, UniProt Q386Q8)

COc1ccccc1N1Cc2ccc(OC)c(OC)c2C1=O gave an IC50 of > 100 µM (ppa; enzyme activity, inhibitor).
With COc1ccc(C(N)=O)c[n+]1C the IC50 was > 31.6 µM (NNMT; enzyme activity in cells, inhibitor).
For O=c1c(-c2cnn(-c3ccccc3)c2)c(C(F)(F)F)oc2c(O)c(O)ccc12, the IC50 was 13.9 µM (Cullin-4A (CUL4A, Homo sapiens, UniProt Q13619); enzyme activity, inhibitor, fluorescence).
With CNc1cc(N)c(C(N)=O)cn1 the IC50 was 0.2 µM (NNMT; enzyme activity, inhibitor).
CC(C)c1ccc(/C=C/C(=O)c2ccc(Cl)cc2)cc1 has an IC50 of 0.066 µM (MAOB; enzyme activity, inhibitor).
For COC(=O)Cc1cc2c(cc1C(=O)c1ccccc1)OCO2, the IC50 was 6.17 µM (Gria1; glutamate-evoked current, inhibitor, whole-cell patch clamp; HEK293T, homomeric receptor).
For Cn1c(=O)c(-c2ccccc2Cl)cc2cnc(Nc3cccc(S(C)(=O)=O)c3)nc21, the IC50 was 0.03 µM (SRC (Homo sapiens, UniProt P12931); enzyme activity, inhibitor).
COc1ccccc1C1CCN(c2nc(C3(F)CC3)nc3cc(Cl)c(N(C)CCO)cc23)CC1 has an IC50 of 1.28 µM (NTSR1; G protein activation, antagonist).
With COc1cccc(OC)c1-c1cc(C(=O)NC2(C(=O)O)C3CC4CC(C3)CC2C4)nn1-c1ccc(C(=O)NCCNC(=O)[C@H](CCCCNC(=O)[C@H](CC(C)C)NC(=O)C2OC2C(=O)O)NC(=O)CN2CCN(CC(=O)O)CCN(CC(=O)O)CCN(CC(=O)O)CC2)cc1C(C)C (mixture of isomers) the IC50 was 0.0097 µM (NTSR1; ligand displacement, radioligand).
C[n+]1cc(C(N)=O)ccc1N has an IC50 of 15.8 µM (NNMT; enzyme activity in cells, inhibitor).
NC(=O)c1ccc(C(=O)NOCc2ccc(Sc3cccc(Cl)c3)c(C(F)(F)F)c2)cc1 has an IC50 of > 30 µM (CYP2C19 (Homo sapiens, UniProt P33261); pooled human liver microsomes; 20 min).
CC[C@H](C)[C@H](NC(=O)[C@H](CCCCN)NC(=O)[C@H](CCCCN)NC(=O)[C@H](CC(=O)O)NC(=O)[C@@H](N)CCC(=O)O)C(=O)N[C@H](C(=O)N[C@H](C(=O)N[C@@H](CCSC)C(=O)N1CCC[C@H]1C(=O)N[C@@H](CS)C(=O)N[C@@H](CCCCN)C(=O)N[C@@H](CS)C(=O)N[C@@H](C)C(=O)N1CCC[C@H]1C(=O)N[C@@H](CO)C(=O)N[C@@H](CCCNC(=N)N)C(=O)O)[C@@H](C)CC)C(C)C gave an IC50 of 32.8 µM (MAD2L2 (Homo sapiens, UniProt Q9UI95, R124A); REV7 complex disruption, inhibitor, fluorescence polarization; together with: FAM-RBM1 peptide).
CCC1(O)CCCN(C(=O)c2cccc(C#N)c2)C1 (stereo not shown) gave an IC50 of 506 ± 25 µM (DNA dC->dU-editing enzyme APOBEC-3B C-terminal domain; deaminase activity, inhibitor, UDG-coupled deamination).
With CNc1cc(F)c(C(N)=O)cn1 the IC50 was 15.8 µM (NNMT; enzyme activity in cells, inhibitor).
The IC50 of CN(C)c1nc(NCc2cc(Cl)c(F)cc2F)c(/N=N/c2ccc(Cl)cc2)c(N(C)C)n1 is reported as 0.32 µM (Chitinase (OfChi-h, Ostrinia furnacalis, UniProt Q4AE59); enzyme activity, inhibitor, fluorescence).
The IC50 of O=C(O)Cc1cc2c(cc1C(=O)c1ccccc1)OCO2 is reported as 5.62 µM (Gria1; glutamate-evoked current, inhibitor, whole-cell patch clamp; HEK293T, homomeric receptor).
The IC50 of Fc1ccc2[nH]c(-c3ccccn3)nc2c1 is reported as ≥ 34 µM (Core-binding factor subunit beta, with RUNX1 Runt domain (Homo sapiens, UniProt Q13951); Runt domain binding, inhibitor, FRET).
CCC1(CO)CCCN(C(=O)c2ccc(CSC)o2)C1 (stereo not shown) gave an IC50 of 563 ± 20 µM (DNA dC->dU-editing enzyme APOBEC-3B C-terminal domain; deaminase activity, inhibitor, UDG-coupled deamination).
Cc1cnc(Nc2ccc3c(c2)CCN(C(=O)/C=C/CC(C)C)C3)nc1-c1cnn(C(C)C)c1 gave an IC50 of 0.00238 µM (JAK1 (Homo sapiens, UniProt P23458); enzyme activity, inhibitor, ADP detection).
For c1ccc(Nc2nc(NC3CCCCC3)c3ccccc3n2)cc1, the IC50 was 3 µM (ADRB2; β-arrestin recruitment, antagonist).
The IC50 of OCC1OC(n2cnc3c(NCCCc4ccccc4)ncnc32)C(O)C1O (stereo not shown) is reported as 0.7 ± 0.1 µM (DNA adenine methyltransferase CamA (Clostridioides difficile, UniProt Q183J3)).
O=C1/C(=N\c2ccc(Cl)cc2)c2ccccc2N1Cc1ccccc1 has an IC50 of 0.0603 µM (PIK3CD; enzyme activity, inhibitor, ADP detection).
With O=C1CC(c2ccccc2)N1S(=O)(=O)c1ccc(Cl)cc1 (stereo not shown) the IC50 was 5 µM (glpG; enzyme activity, inhibitor).
The IC50 of Fc1ccc(Nc2nc(NC3CCCCC3)c3cc(C(F)(F)F)ccc3n2)cc1F is reported as 0.251 µM (ADRB2 (Homo sapiens, UniProt P07550, V126A); β-arrestin2 recruitment, antagonist, BRET; HEK293; mutant V126A, together with: isoprenaline 1 µM).
For Cc1cccc(C2CC(=O)N2S(=O)(=O)c2cccc(Cl)c2)c1 (stereo not shown), the IC50 was 5 µM (glpG; enzyme activity, inhibitor).
N[C@@H](Cc1c[nH]c2ccc(OCc3ccccc3-c3ccoc3)cc12)C(=O)O has an IC50 of 15.6 µM (SLC7A5; transporter uptake, inhibitor, radiometric).
COc1ccccc1C1CCN(c2nc(C3(F)CC3)nc3ccc(N(C)CCN4CCOCC4)cc23)CC1 has an IC50 of 3.72 µM (NTSR1; G protein activation, antagonist, BRET).
For COc1cccc(NC(=O)N2CCOc3ccccc32)c1, the IC50 was > 30 µM (ppa; inhibitor, counter-screen, coupling enzyme alone).
O=C(O)Cc1cc2c(cc1C(=O)c1cccc(Cl)c1)OCO2 has an IC50 of 4.31 µM (Gria1; ion current, patch clamp).
CCC1(O)CCCN(C(=O)c2ccc(-c3ccccc3C(F)(F)F)cc2)C1 (stereo not shown) gave an IC50 of 656 µM (DNA dC->dU-editing enzyme APOBEC-3B (Homo sapiens, UniProt Q9UH17); enzyme activity, inhibitor, HPLC).
Cc1cc(O)c2c(c1)C(=O)c1cc(O)c(O)c(O)c1C2=O has an IC50 of 59.1 µM (MAOB; enzyme activity, inhibitor).
C[N+](C)(CCCN1c2ccccc2CCc2ccc(Cl)cc21)Cc1ccccc1 has an IC50 of 29.2 µM (ppa; inhibitor, counter-screen, coupling enzyme alone).
The IC50 of O=Cc1ccc2c(c1C#Cc1ccc(O)cc1)C(c1ccc(O)cc1)(c1ccc(O)cc1)c1cc(O)ccc1-2 is reported as 0.274 µM (PDE4D (Homo sapiens, UniProt Q08499); enzyme activity, inhibitor).
The inhibition of O=C(O)c1ccc(Nc2c(-c3ccc(CON=Cc4cncn4Cc4ccccc4)cc3)nc3cc(-c4ccccc4)ccn23)cc1 (mixture of isomers) is reported as 54.7% (TDP1; enzyme activity, inhibitor; 100 µM, unpurified compound).
With COc1ccc(Nc2nc(NC3CCCCC3)c3ccccc3n2)cc1OC the IC50 was 14 µM (ADRB2; β-arrestin recruitment, antagonist).
COc1ccc(OC)c(C2=Nn3c(nnc3C3CCCCC3)SC2)c1 gave an IC50 of 43.6 µM (Uncharacterized protein; enzyme activity, inhibitor, coupled colorimetric; together with: E. coli pyrophosphatase coupling).
With C=CCOc1ccc(C=NOCc2ccc(-c3nc4cc(-c5ccccc5)ccn4c3Nc3ccc(C(=O)O)cc3)cc2)cc1I the inhibition was 45.6% (TDP1; enzyme activity, inhibitor; 100 µM, unpurified compound).
The IC50 of O=C(CC1(O)C(=O)Nc2cc(Cl)cc(Cl)c21)c1ccc2c(c1)OCO2 (stereo not shown) is reported as 348 µM (Uncharacterized protein; inhibitor, coupled colorimetric; Trypanosoma brucei).
Cc1nc(S(=O)(=O)Nc2cc3c(cc2Oc2cccc(COCC(C)C)c2)n(C)c(=O)n3C)cn1C gave an IC50 of 0.696 µM (Bromodomain-containing protein 1, bromodomain (BRD1, Homo sapiens, UniProt O95696); acetylated histone H4 peptide binding, inhibitor, HTRF).
For N[C@@H](Cc1c[nH]c2ccc(OCc3ccccc3-c3cccs3)cc12)C(=O)O, the IC50 was 12.1 µM (SLC7A5; transporter uptake, inhibitor, radiometric).
The IC50 of O=C(CCNC(=O)CNC(=O)CC(c1ccccc1)(c1ccccc1)c1ccccc1)NC[C@@H]1CCCN(Cc2ccc(F)cc2)C1 is reported as 13.1 µM (CHRM5 (Homo sapiens, UniProt P08912); ligand displacement, radioligand; cell membranes).
Fc1ccc(Nc2nc(NC3CCCCC3)c3cc(Br)ccc3n2)cc1F gave an IC50 of 0.2 µM (ADRB2 (Homo sapiens, UniProt P07550, C125V); β-arrestin2 recruitment, antagonist, BRET; HEK293; mutant C125V, together with: isoprenaline 1 µM).
Cc1nn(-c2cccc(N)c2)c(=O)c2cnc(Nc3ccc(N4CCNCC4)cc3)nc12 gave an IC50 of 2.71 µM (RAF1 (Homo sapiens, UniProt P04049, Y340D/Y341D); kinase activity, inhibitor, SelectScreen kinase profiling).
With Fc1cccc(Nc2nc(NC3CCCCC3)c3ccccc3n2)c1 the IC50 was > 50 µM (ADRB2; cAMP production, antagonist, GloSensor; together with: isoproterenol 1 µM).
For CC(C)c1ccc(/C=C/C(=O)c2ccc(S(C)(=O)=O)cc2)cc1, the IC50 was 5.03 µM (MAOB; enzyme activity, inhibitor).
The IC50 of c1csc(C2=Nn3c(nnc3C3CCCCC3)SC2)c1 is reported as 197 µM (Uncharacterized protein; inhibitor, coupled colorimetric; Trypanosoma brucei).
With O=C1/C(=N\c2ccccc2Br)c2ccccc2N1Cc1ccc([N+](=O)[O-])cc1 the IC50 was 0.0207 µM (PIK3CD; enzyme activity, inhibitor, ADP detection).
With COc1ccc(OC)c(C2=Nn3c(nnc3-c3ccco3)SC2)c1 the IC50 was > 100 µM (Uncharacterized protein; inhibitor, coupled colorimetric; Trypanosoma brucei).
CCN(CC)CC(=O)Nc1cccc(-n2cc(-c3ccc4ccc(-c5cn(-c6cccc(NC(=O)CN(CC)CC)c6)nn5)cc4c3)nn2)c1 has an IC50 of > 10 µM (CAMK2D (Homo sapiens, UniProt Q13557); enzyme activity, inhibitor).
The IC50 of Cc1ccc(N=C2CC(=O)c3sc(C)nc3C2=O)cc1 is reported as 4.7 µM (EHMT1 (Homo sapiens, UniProt Q9H9B1); enzyme activity, inhibitor).
The IC50 of COc1cc(OC)c2nc(C3CC3)nc(N3CCN(c4ccccc4OC)CC3)c2c1 is reported as 14.5 µM (NTSR1; G protein activation, antagonist).
The IC50 of COC(=O)C1=C(C)NC(C)=C(C(=O)OC)C1c1ccc(F)c(C(F)(F)F)c1 is reported as 3.11 µM (CACNA1C (Homo sapiens, UniProt Q13936); ion current, inhibitor, patch clamp; pH 7.4).
CC(=O)C1=C(C)Nc2ccccc2S1 has an IC50 of 59 µM (Uncharacterized protein; enzyme activity, inhibitor, coupled colorimetric; together with: E. coli pyrophosphatase coupling).
COc1cc2nc(C3(C)CC3)nc(N3CCC(c4ccccc4OC)CC3)c2cc1OC gave an IC50 of 1.48 µM (NTSR1; G protein activation, antagonist).
For CC(C)(C)NC(=O)CC(NC(=O)CCc1ccccc1)C(=O)NCCNC(=O)c1cccc(-c2ccccc2)c1 (stereo not shown), the IC50 was 0.326 µM (Proteasome component C5/PSMB5 (Homo sapiens, UniProt P20618+P28074); enzyme activity, inhibitor; constitutive proteasome β5c).
